Assay results collected from several papers.
lasR: Transcriptional activator protein LasR (lasR, Pseudomonas aeruginosa, UniProt P25084)
Chain of UniProt P25084 (whole entry, looked up): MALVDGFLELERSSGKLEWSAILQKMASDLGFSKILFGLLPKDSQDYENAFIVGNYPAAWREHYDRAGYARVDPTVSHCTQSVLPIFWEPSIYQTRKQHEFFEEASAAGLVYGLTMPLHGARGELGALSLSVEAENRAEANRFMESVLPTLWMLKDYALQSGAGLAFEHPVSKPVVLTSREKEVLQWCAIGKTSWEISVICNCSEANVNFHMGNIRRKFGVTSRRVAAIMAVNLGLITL
T1: lysine riboswitch RNA, 2-aminopurine at 17 (Bacillus subtilis); chain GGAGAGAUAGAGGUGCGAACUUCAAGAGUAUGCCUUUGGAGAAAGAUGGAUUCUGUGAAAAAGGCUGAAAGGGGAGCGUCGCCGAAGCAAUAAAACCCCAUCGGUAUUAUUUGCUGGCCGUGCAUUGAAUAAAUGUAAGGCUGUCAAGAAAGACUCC; chain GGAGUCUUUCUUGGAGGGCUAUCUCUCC
T2: riboswitch RNA (Mesoplasma florum); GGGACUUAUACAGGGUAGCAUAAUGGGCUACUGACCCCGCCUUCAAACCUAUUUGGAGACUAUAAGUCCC
T3: riboswitch RNA U11G (Bacillus); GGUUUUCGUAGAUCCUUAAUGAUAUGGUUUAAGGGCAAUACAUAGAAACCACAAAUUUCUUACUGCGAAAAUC
T4: lysine riboswitch RNA (Thermotoga maritima); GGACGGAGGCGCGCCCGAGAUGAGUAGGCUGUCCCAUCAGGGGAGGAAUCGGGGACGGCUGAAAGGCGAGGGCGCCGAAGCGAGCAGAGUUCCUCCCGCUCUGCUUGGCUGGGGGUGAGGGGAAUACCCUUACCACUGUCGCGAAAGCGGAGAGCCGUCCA
T5: aptamer DNA vancomycin aptamer variant; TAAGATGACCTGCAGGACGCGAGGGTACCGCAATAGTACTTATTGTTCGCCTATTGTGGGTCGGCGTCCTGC
T6: aptamer DNA A5T; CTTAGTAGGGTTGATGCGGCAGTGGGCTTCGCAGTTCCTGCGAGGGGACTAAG
T7: riboswitch RNA SAM-I metF-H2 (Thermoanaerobacter tengcongensis); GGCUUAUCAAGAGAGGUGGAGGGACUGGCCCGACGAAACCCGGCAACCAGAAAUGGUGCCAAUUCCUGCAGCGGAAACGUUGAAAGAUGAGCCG
Chain of UniProt Q6P2M8 (whole entry, looked up): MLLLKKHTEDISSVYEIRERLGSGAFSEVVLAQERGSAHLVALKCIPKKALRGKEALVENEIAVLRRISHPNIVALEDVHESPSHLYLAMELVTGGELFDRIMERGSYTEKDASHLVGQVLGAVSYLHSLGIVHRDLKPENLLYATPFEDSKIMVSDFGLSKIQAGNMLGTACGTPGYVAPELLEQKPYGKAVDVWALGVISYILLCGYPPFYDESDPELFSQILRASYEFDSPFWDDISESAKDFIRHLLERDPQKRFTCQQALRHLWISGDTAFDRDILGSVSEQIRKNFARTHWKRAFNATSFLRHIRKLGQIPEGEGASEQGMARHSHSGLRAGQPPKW

For `NC(=O)C[C@H](N)C(=O)O`, binding read “no binding” (T1, lysine riboswitch RNA, 2-aminopurine at 17 (Bacillus subtilis); 2-aminopurine fluorescence titration; pH 8.0, no fluorescence change).
For `Nc1nc2c(ncn2[C@@H]2O[C@H](COP(=O)(O)OP(=O)(O)OP(=O)(O)O)[C@@H](O)[C@H]2O)c(=O)[nH]1`, binding read “no binding” (T2, riboswitch RNA (Mesoplasma florum); NMR).
`O=C(C#Cc1ccc(F)c(F)c1)c1cccc(Cl)c1` gave a binding of 61% (lasR; receptor binding; concentration not given, 1.5 h, with: OdDHL at 1:1 ratio; relative to: control).
`Nc1nc2c(ncn2[C@H]2C[C@H](O)[C@@H](CO)O2)c(=O)[nH]1`: binding “no binding” (T3, riboswitch RNA U11G (Bacillus); ITC; KCl 50 mM).
For `NCCCC[C@H](N)C(=O)NCC(=O)O`, binding read “binds” (T4, lysine riboswitch RNA (Thermotoga maritima); X-ray crystallography).
Under binding, `CN[C@H](CC(C)C)C(=O)N[C@H]1C(=O)N[C@@H](CC(N)=O)C(=O)N[C@H]2C(=O)N[C@H]3C(=O)N[C@H](C(=O)N[C@H](C(=O)O)c4cc(O)cc(O)c4-c4cc3ccc4O)[C@H](O)c3ccc(c(Cl)c3)Oc3cc2cc(c3O[C@@H]2O[C@H](CO)[C@@H](O)[C@H](O)[C@H]2O[C@H]2C[C@](C)(N)[C@H](O)[C@H](C)O2)Oc2ccc(cc2Cl)[C@H]1O` is recorded as “binds” (T5, aptamer DNA vancomycin aptamer variant; competitor, fluorescence; pH 7.4, MgCl2 10 mM).
`COc1cccc(C(=O)C#Cc2ccc(O)c(OC)c2)c1` gave a binding of 80% (lasR; receptor binding; concentration not given, 1.5 h, with: OdDHL at 1:1 ratio; relative to: control).
Under binding, `C[n+]1ccc(C=C2Sc3ccccc3N2CC(=O)NCCOCCOCCOCCNC(=O)CCCC[C@@H]2SC[C@@H]3NC(=O)N[C@@H]32)c2ccccc21` is recorded as “binds” (T6, aptamer DNA A5T; X-ray crystallography).
With `C1=C/COCc2cc(ccc2OCCN2CCCC2)Nc2nccc(n2)-c2cccc(c2)COC/1` the binding was 34% (PNCK (Homo sapiens, UniProt Q6P2M8); concentration not given, kinase construct CAMK1B; relative to: control).
For `N[C@@H](CCCCNC(=O)CCCC[C@@H]1SC[C@@H]2NC(=O)N[C@@H]21)C(=O)O`, binding read “no binding” (T1, lysine riboswitch RNA, 2-aminopurine at 17 (Bacillus subtilis); 2-aminopurine fluorescence titration; pH 8.0).
`COc1cc(C#CC(=O)CC(C)C)ccc1O` has a binding of 84% (lasR; receptor binding; concentration not given, 1.5 h, with: OdDHL at 1:1 ratio; relative to: control).
`C[C@H](N)C(=O)O` — result for binding: “no binding” (T1, lysine riboswitch RNA, 2-aminopurine at 17 (Bacillus subtilis); 2-aminopurine fluorescence titration; pH 8.0, no fluorescence change).
Under binding, `C[S+](CC[C@H](N)C(=O)O)C[C@H]1O[C@@H](n2cnc3c(N)ncnc32)[C@H](O)[C@@H]1O` (some centres unmarked) is recorded as “binds” (T7, riboswitch RNA SAM-I metF-H2 (Thermoanaerobacter tengcongensis); ITC; apparent).
With `COc1ccccc1C(=O)C#Cc1ccc(F)c(F)c1` the binding was 60% (lasR; receptor binding; concentration not given, 1.5 h, with: OdDHL at 1:1 ratio; relative to: control).

Excerpt of the above:
`C[C@H](N)C(=O)O` — result for binding: “no binding” (T1, lysine riboswitch RNA, 2-aminopurine at 17 (Bacillus subtilis); 2-aminopurine fluorescence titration; pH 8.0, no fluorescence change).
